Measurements of several laboratories.
A part holds a random share of what one study measured.

Block 1
Target: TAR DNA-binding protein 43, full length, His tag (TARDBP, Homo sapiens, UniProt Q13148, residues 1-414)
Technique: RNA Bind-n-Seq
Form: RNA
Matrix: in vitro
Concentration: 20 nM
Notes: 6-mer, flanks averaged, single round
Together with: 150 mM LiCl
Relative to: input library
Reading: higher = stronger binding
Strand | 6-mer enrichment (R)
AUAACG | 0.853
GAGUAA | 0.959
CUCACU | 0.868
UUAGUG | 1.23
UGCAGA | 0.912
CUUAGA | 0.846
AGCUGC | 0.917
CGUGCC | 0.981
AGGCUG | 0.983
UGCAGU | 1.02
CCCGCA | 1
UGCUCA | 0.869
AUUAGC | 0.906
GGCACA | 0.959
CCGUGA | 0.878
ACGAGA | 0.849
ACGACU | 0.79
AUCUAC | 0.826
CUUAUC | 0.907
UCCUUC | 0.907

Block 2
Target: RING finger protein unkempt homolog, zinc fingers 1-6, GST-SBP tag (UNK, Homo sapiens, UniProt Q9C0B0, residues 30-357)
Technique: RNA Bind-n-Seq
Form: RNA
Matrix: in vitro
Concentration: not given
Notes: RNA with constant flanks, human-mouse chimeric sites, ends assumed
Relative to: input RNA pool
Reading: higher = stronger binding
Construct (chain): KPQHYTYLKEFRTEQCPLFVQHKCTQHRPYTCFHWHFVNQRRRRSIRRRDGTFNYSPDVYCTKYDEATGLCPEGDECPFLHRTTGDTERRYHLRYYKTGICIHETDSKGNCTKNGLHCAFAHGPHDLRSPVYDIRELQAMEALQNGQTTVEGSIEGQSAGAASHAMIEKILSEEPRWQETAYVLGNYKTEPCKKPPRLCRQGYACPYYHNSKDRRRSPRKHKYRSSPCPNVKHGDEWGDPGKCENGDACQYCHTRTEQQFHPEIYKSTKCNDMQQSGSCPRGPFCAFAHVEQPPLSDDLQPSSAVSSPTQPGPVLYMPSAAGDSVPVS
Strand | bound/input enrichment [ratio]
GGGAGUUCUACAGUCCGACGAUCCUGGGUAUCAUCUCUCGUGCUGUUAGACACCUGUUCAAGAGUAUUGAUGAGAAAAAGACCUCAGCGAUUAAAAACGGGCUGCCCCCUCCUGAAUUCAAAGUGAAUGCCCAGUUCCUAGAGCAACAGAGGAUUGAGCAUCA | 0.175
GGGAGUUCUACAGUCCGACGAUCGUAAUGGACGUUAAUACUGCUUUACAAGAGGUGCUGAAGACCGCCCUCAUCCACGAUGGCCUAGCACGUGGCAUACGCGAAGCUGCCAAAGCCUUAGACAAGCGCCAAGCCCAUCUGUGUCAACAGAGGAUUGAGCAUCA | 0.214
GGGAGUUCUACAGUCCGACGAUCUGUGCAUAUGAUGCUUGAGAUGGUUUUUGCAAAAGCAGAAAUCGCUGCAAGGUAAUCACAAUAGAUACAAGCGGUAUUUUAAACCUUUGAAAUAAAUGGAUGUAACUGUACCUUGGUACACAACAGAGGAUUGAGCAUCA | 0.27
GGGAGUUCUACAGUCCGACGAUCAACAGAUUGUCUUUAAGCAUUCCAAGCGAGAAUGCUGAAAUAGUCAUUGUUGCCCAUGUGCCUUCUGACUGAGCUUUUAAUUAAUUGCAUGUUACAUCUUUCCUUCACUCCAGAAUUGUUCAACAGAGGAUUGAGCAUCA | 0.447
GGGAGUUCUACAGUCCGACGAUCGCGGCAGAAUCAUGGAGGACAUAAUGCAGCUCCCCAAAGCGCGCGUCAACGCCAGCAUGUUACCACAGUAUAUCGACCGGCCCGUGUGCUUCGUGGGGAGGCUGGAAAAGAUUCAUCCCACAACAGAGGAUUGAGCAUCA | 0.13
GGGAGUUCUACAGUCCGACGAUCAAAGGCAAAAAGGGCAGCUGUGUCAUUACUUGGGAGACUCUGGGGGAGGGAAAUUCUGUUCUUUUGUUUAAUUUUCCCCCAAAUGAAGCCAAAGUGUGUGUUGAAGAACUGAGAAAAAAUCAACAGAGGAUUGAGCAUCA | 0.201
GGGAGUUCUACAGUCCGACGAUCAGGAGGAGGUUAAAGGGUGAGAGUGGGGUGGAAGACUGUGUCAUGGCUCUGGAGACACUGUUCAGUGUCCUGCUUUCUCUGUGCAGACUGAUGGCCCCCUACACACCUUUUCUCACUGAGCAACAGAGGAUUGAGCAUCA | 0.0533
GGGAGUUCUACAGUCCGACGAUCCUGUGUGUGCUGAAUAAAUGGCUUGUAAAGAAGUUUUCCAAGUUGUAAACCCAUGCUGUUAUUAUAGUUGCUGCAAAAUGUCUCUUAUGAUAUUGAUUUUAUUUGUUAACUGAAGGUCUCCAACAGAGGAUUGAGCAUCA | 0.418
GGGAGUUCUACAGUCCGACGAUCGACUUUGGGACUGGUCCUCGCAACGCAGCCUACUAUAGCCCUCAUGGACAUAUAUUAGUGCUGGCUGGAUUUGGAAAUCUUCGAGGACAAAUGGAAGUAUGGGAUGUGAAAAACUACAAGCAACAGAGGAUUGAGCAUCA | 0.362
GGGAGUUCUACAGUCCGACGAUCGAUCAUGAACCACCAUCAGAAAUGAAGAUGAGAUUACCCAAGACGAGCAAAACAGCUGCGCUACAGAAAAGUAAACUUAACCUUGCAGAGUUCCUUAAUGAAGAUACUAAGUUAGGAAGCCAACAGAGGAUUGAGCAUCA | 0.355
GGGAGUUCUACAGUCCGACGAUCAGGAGGAGGUUAAAGGGUGAGAGUGGGGUGGAAGACUGUGUCAUGGCUCUGGAGACAUUGUUUAGUGUCCUGCUUUCUCUUUGCAGACUGAUGGCCCCUUACACGCCCUUUCUGACUGAGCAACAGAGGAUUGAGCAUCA | 0.127

Block 3
Target: RNA binding protein fox-1 homolog 2, RRM domain, GST-SBP tag (RBFOX2, Homo sapiens, UniProt O43251-10, residues 100-194)
Technique: RNA Bind-n-Seq
Form: RNA
Matrix: in vitro
Concentration: 365 nM
Notes: natural RNA segment, single round, ends assumed
Relative to: no-protein control
Reading: higher = stronger binding
Residues (chain): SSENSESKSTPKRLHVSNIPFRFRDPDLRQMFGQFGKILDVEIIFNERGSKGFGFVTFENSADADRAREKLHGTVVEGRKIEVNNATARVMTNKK
Strand | RBNS enrichment (R)
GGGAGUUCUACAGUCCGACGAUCGAUAAAGUGUGUUUUCAGGCUCAAUUAUUUCACCUUAAUGUAAUGUACUGUAAGAUUUUGUACUGAAUUUCAUUUUUUUAAAUUAUGCUCAAGAACUUAAUUUUUAACCAUGGAAUUCUCGGGUGCCAA | 0.642
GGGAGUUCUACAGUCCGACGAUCUGGGGUGGGUGGGGUUCUCUCCUCCCUCCCUCCCUCCUCCUGGGGUGGGAGGGCGCUCCUGUUCCCAUCUCUGUGUUCCCUGGAGGCAGGUAUCACAAAGCAUUUGUGAAUGGAAUUCUCGGGUGCCAA | 0.268
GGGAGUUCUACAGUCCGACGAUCCCCCUGUUCCAUUCCCCUCUUCUUCCUUCUAUCUCCUUCCCCGGCAAAAACCAAACAAACUGGCAGACAGGCCAGGGAUGUAUGUUGCUUGCUUGAGAGGGUUUCUUUUAUGGAAUUCUCGGGUGCCAA | 0.463
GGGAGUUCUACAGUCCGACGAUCGGGGUUUGUUUUAGUUUUCUUUAGUGAAUUUAUGCUGUUUUGGGGGGCGGAUUGAGAAGAAUCUUCCGUAGCCUGAGCUGUCCCUCCUGUUUUGACGGCACAUGUGCCAGUGGAAUUCUCGGGUGCCAA | 1.24
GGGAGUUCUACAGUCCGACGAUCGACAAGUAACAACUCAAAUAAUUCCAUAUUGUUUGAGGAAGAGGCCAUAAUCCUUCUGAAUUGUUGGCACUAAGUAAUGGGAUUUGGCCCAGUAAGUAUGACGGUCGUGUUGGAAUUCUCGGGUGCCAA | 0.293
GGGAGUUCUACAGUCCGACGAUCCAAAUCUUGUUGCUGAUUUGUCCAUUUCUUUCCCUGCACUUUGUUACAUCUGGGAUACAGUCUAACUCAUCUGAUUUAAUAUGCAUUUAAAAAAAUGCCAUAACUAUUAAUGGAAUUCUCGGGUGCCAA | 0.533
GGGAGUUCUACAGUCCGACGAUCGUCAUUGAAAAAGUAAUUUUACGUCUGGCUGGUGAGAGUAAAGUUGGAAAAAUAAUUUUGCAUUUUUUGAGCCUUUGAAAGUUGGAAAGUCCACUAACUGUUCAAAGAUAUGGAAUUCUCGGGUGCCAA | 2.14
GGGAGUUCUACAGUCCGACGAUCUUUUGUUGUUUUGUUGUUUUGUUUUAAUCCUAUGUGACAAUUCCAACUAUGCGGUUACCCUCUGAGGAUAAGUUCCUCAGCCCGGGGUUCUUUUAUAUGCUGUGUCCUUUUGGAAUUCUCGGGUGCCAA | 0.419
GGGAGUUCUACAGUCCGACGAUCCCAAGCCUCAGGCUGGGCUCAUUCAUAUAAUUGCAAUAAAUGGUACGUGUCCAUUUGGACAGCAGACACUUUGGUGUACUUGUGCAGUCUCUUUUUGGUCUGGCCAUGUCUGGAAUUCUCGGGUGCCAA | 0.353
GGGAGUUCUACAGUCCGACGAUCUAAUGCUGUAACCCUUUAAUACAGUUCCUCAUGUUCUGGUGACCCCUCCCCCAACUAUAAAAUUAUUUUGUGGCUACUUCAUAACUGUAAUUUUGCUACUGUUAUGAAUCUGGAAUUCUCGGGUGCCAA | 0.555
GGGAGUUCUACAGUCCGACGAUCAUUGUCUCUGAAAAUAAUGACAGUUUAUAAAAUGUUUAGGUACAAAGGCAUAAAUGAUAAUAAGUAAGCCUGGUAAUAUGUUCUUAUUUAAGAAGAACCUGAGAAGGUUUUGGAAUUCUCGGGUGCCAA | 0.478
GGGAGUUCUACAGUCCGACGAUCGCAUGCCGCCACACCCGACUAAUUUUUUGUAUUUUUAGUAGAGUCAGGGUUUCACCGUGUUGCCCAGGCUGGUGUCGAACUCCUGACCUCAGGUGAUCUGCCCACCUCAGUGGAAUUCUCGGGUGCCAA | 3.31

Block 4
Target: Histone acetyltransferase KAT6A, both winged helices, GST fusion (KAT6A, Homo sapiens, UniProt Q92794, residues 1-181)
Technique: protein binding microarray
Form: double-stranded DNA, one strand shown
Matrix: in vitro
Concentration: not given
Notes: 8-mer, flanks averaged, mean of 2 arrays, mostly near background
Relative to: not given
Reading: higher = stronger binding
Residues (chain): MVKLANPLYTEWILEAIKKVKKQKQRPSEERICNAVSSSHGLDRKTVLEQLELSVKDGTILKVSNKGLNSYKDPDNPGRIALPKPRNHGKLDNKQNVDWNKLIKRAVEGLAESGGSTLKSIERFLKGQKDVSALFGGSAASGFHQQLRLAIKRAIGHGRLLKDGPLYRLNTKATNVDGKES
Strand | E-score
ATTGAGGC | -0.11
AGAGACTA | -0.0669
GCCGCGCC | 0.354
AAGTACCA | -0.0857
CATTAGCG | 0.248
TGAAGACA | -0.0368
CGTGACAG | 0.0419
ATGATCCA | -0.166
AAATGCCC | -0.159
CACCGATG | -0.0431
AGGGTACC | -0.0738
AACGCGCC | 0.267
ATCCGTAG | 0.129
ATTGGGGC | -0.16
AGGTGATC | -0.12
CGTGATGA | -0.0649
AAAATTAA | -0.00093
GATTATTA | 0.0285
CCGACTCA | 0.0213
ATCAGTTG | -0.178
CCCCCCTA | -0.219
AGGAGAGA | -0.143
CAATCCAG | -0.194
AGAGTGGG | -0.156
CCTTCATC | -0.188

Excerpt of the above (block 3):
Strand | RBNS enrichment (R)
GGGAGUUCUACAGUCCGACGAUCGACAAGUAACAACUCAAAUAAUUCCAUAUUGUUUGAGGAAGAGGCCAUAAUCCUUCUGAAUUGUUGGCACUAAGUAAUGGGAUUUGGCCCAGUAAGUAUGACGGUCGUGUUGGAAUUCUCGGGUGCCAA | 0.293
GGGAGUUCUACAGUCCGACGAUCCAAAUCUUGUUGCUGAUUUGUCCAUUUCUUUCCCUGCACUUUGUUACAUCUGGGAUACAGUCUAACUCAUCUGAUUUAAUAUGCAUUUAAAAAAAUGCCAUAACUAUUAAUGGAAUUCUCGGGUGCCAA | 0.533
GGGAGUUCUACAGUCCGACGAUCGUCAUUGAAAAAGUAAUUUUACGUCUGGCUGGUGAGAGUAAAGUUGGAAAAAUAAUUUUGCAUUUUUUGAGCCUUUGAAAGUUGGAAAGUCCACUAACUGUUCAAAGAUAUGGAAUUCUCGGGUGCCAA | 2.14
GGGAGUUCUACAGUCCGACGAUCUUUUGUUGUUUUGUUGUUUUGUUUUAAUCCUAUGUGACAAUUCCAACUAUGCGGUUACCCUCUGAGGAUAAGUUCCUCAGCCCGGGGUUCUUUUAUAUGCUGUGUCCUUUUGGAAUUCUCGGGUGCCAA | 0.419
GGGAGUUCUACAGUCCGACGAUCCCAAGCCUCAGGCUGGGCUCAUUCAUAUAAUUGCAAUAAAUGGUACGUGUCCAUUUGGACAGCAGACACUUUGGUGUACUUGUGCAGUCUCUUUUUGGUCUGGCCAUGUCUGGAAUUCUCGGGUGCCAA | 0.353
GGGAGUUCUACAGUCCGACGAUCUAAUGCUGUAACCCUUUAAUACAGUUCCUCAUGUUCUGGUGACCCCUCCCCCAACUAUAAAAUUAUUUUGUGGCUACUUCAUAACUGUAAUUUUGCUACUGUUAUGAAUCUGGAAUUCUCGGGUGCCAA | 0.555
